Assay results of several laboratories.
Compare with care: the assays were run in different laboratories.
CHUK: Inhibitor of nuclear factor kappa-B kinase subunit alpha (CHUK, Homo sapiens, UniProt O15111)
Chain of UniProt O15111 (whole entry, looked up): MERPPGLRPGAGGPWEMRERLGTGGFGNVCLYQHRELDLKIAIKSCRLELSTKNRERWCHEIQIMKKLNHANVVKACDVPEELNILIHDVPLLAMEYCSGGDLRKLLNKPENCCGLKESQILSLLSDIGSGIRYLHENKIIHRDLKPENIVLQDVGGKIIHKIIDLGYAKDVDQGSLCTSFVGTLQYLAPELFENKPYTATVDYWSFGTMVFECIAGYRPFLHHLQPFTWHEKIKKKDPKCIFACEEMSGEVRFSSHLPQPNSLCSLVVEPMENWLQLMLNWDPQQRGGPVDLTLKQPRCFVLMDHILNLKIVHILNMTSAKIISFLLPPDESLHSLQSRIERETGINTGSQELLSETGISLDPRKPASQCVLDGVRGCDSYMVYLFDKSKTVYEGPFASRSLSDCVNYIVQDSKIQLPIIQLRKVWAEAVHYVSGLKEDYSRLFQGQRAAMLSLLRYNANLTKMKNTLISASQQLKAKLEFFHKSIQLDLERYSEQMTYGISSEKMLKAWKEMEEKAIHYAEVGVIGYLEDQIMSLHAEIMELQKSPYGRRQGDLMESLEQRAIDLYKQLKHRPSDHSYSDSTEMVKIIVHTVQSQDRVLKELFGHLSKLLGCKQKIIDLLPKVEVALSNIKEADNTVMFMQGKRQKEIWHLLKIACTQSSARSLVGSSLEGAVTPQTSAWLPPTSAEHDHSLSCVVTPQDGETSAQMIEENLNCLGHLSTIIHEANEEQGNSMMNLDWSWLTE
Chain of UniProt P51161 (whole entry, looked up): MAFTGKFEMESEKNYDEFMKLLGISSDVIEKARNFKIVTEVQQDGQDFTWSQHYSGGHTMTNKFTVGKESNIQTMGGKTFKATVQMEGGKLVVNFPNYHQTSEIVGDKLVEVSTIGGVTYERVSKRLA
Chain of UniProt P46094 (whole entry, looked up): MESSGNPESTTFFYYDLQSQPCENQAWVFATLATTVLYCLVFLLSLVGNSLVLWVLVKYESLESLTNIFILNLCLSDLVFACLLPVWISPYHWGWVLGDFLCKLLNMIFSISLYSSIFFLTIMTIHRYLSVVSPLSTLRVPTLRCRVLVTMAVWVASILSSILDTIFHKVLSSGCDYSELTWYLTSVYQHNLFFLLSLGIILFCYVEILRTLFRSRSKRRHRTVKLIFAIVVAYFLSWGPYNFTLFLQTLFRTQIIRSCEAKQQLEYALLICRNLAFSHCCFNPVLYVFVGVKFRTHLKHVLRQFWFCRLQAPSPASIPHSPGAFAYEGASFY
Chain of UniProt Q14994 (whole entry, looked up): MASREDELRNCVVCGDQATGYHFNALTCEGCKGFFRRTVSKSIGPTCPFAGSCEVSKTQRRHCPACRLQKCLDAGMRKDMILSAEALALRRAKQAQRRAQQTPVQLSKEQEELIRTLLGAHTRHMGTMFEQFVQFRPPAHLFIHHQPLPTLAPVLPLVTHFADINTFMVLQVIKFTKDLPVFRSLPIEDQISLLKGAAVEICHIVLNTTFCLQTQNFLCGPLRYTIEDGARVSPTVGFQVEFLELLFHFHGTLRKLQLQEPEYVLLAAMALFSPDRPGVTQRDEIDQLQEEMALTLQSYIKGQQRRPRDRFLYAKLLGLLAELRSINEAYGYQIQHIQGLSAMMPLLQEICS
Chain of UniProt P10619 (whole entry, looked up): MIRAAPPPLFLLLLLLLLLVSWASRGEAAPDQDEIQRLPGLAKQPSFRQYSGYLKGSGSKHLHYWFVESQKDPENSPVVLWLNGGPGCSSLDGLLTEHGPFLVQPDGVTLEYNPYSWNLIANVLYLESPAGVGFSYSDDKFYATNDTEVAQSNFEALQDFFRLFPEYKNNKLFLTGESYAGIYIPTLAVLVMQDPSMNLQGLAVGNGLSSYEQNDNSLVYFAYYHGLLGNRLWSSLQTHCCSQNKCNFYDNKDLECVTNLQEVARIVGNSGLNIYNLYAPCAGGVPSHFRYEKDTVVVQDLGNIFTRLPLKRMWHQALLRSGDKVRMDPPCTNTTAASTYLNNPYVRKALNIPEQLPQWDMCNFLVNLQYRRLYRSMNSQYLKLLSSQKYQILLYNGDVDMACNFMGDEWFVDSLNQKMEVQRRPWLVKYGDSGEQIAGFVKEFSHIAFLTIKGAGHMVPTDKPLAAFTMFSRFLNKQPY
Chain of UniProt Q15746 (whole entry, looked up): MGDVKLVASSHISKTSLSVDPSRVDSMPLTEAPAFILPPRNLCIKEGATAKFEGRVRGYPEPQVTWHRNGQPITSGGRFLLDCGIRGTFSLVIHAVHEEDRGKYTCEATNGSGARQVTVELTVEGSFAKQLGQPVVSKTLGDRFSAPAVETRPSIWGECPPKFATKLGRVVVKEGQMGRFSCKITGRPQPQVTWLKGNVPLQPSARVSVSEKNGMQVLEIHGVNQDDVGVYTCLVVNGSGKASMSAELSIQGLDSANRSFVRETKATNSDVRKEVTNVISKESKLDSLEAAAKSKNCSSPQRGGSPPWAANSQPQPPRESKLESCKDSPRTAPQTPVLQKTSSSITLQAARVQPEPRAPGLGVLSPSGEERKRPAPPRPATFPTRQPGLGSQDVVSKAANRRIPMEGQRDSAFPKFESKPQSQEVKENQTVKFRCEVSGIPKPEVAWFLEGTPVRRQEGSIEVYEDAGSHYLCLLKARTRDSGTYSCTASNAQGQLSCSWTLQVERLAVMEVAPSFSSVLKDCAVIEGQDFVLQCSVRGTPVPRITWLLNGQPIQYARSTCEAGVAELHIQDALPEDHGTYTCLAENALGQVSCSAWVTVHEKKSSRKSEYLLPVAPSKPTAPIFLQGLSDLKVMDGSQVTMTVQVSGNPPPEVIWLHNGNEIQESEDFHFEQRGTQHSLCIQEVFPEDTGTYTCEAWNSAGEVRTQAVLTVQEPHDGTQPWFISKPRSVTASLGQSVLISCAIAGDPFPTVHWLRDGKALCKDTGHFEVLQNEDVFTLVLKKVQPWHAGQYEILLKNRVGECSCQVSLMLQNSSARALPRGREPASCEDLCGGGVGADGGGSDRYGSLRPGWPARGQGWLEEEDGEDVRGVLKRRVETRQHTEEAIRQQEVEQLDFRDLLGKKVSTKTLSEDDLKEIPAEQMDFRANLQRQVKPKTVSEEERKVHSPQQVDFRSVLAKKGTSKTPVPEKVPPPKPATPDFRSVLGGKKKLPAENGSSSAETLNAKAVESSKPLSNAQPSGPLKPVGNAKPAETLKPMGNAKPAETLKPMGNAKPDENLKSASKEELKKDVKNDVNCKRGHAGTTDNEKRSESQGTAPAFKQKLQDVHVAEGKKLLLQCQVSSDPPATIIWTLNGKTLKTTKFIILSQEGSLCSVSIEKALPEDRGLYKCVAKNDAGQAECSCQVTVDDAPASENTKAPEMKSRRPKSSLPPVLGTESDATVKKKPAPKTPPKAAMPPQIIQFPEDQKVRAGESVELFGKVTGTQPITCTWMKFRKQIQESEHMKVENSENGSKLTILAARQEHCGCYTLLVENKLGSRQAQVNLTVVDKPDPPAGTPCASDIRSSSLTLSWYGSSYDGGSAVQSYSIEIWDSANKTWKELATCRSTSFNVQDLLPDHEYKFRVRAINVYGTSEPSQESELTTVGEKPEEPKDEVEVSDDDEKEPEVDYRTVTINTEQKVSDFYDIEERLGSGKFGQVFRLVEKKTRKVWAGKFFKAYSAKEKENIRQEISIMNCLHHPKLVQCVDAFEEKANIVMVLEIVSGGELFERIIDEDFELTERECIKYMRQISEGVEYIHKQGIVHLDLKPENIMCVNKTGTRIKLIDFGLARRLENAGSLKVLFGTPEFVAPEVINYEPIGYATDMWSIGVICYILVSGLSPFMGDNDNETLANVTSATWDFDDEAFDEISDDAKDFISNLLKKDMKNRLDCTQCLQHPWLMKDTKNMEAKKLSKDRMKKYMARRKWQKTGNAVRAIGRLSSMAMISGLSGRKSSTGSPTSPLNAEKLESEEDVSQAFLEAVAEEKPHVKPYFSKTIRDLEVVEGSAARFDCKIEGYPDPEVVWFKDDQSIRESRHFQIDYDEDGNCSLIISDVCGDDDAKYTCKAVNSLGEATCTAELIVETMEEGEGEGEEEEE
Chain of UniProt Q13164 (whole entry, looked up): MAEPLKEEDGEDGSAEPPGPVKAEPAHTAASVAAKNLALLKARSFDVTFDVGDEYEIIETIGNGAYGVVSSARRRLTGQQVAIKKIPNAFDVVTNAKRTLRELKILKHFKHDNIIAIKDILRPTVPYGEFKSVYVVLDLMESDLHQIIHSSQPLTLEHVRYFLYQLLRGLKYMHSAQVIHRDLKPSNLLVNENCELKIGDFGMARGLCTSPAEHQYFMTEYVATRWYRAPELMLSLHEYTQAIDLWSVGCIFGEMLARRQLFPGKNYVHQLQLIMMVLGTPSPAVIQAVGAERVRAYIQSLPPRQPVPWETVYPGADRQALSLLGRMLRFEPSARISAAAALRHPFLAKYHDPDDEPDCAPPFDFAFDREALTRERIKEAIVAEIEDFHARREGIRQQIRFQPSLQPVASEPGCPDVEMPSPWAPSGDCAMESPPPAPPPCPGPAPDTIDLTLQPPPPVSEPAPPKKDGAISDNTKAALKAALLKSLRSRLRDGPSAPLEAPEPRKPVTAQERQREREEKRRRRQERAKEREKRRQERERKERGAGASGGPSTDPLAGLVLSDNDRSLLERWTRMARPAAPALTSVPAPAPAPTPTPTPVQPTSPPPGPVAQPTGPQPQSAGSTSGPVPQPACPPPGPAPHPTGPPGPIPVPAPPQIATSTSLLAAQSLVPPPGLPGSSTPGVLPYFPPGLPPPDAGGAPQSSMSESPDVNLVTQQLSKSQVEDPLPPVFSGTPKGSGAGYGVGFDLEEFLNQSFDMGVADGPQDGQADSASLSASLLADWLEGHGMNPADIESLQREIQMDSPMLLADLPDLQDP

`CN1CCN(c2cc(-c3ccncc3)c(-c3ccc4ccccc4c3)nn2)CC1` gave an activation of -0.7% (XCR1 (Homo sapiens, UniProt P46094); agonist, FLIPR; 12.5 µM).
`O=C(Nc1cnccc1Cl)N1CCN(Cc2ccc3c(c2)OC(F)(F)O3)CC1` gave an inhibition of -3% (PRKD2 (Homo sapiens, UniProt Q9BZL6); kinase activity, inhibitor; 50 µM, human, added: MAPKAPK substrate).
`CC(C)(C)C(O)/C(=C\c1ccc(Cl)cc1Cl)n1cncn1` (centres unmarked) gave a fold change of 27 (Gastrotropin (FABP6, Homo sapiens, UniProt P51161); binding, affinity selection mass spectrometry; 100 nM, pooled screen; relative to: other proteins).
The remaining binding of `[2H]c1c([2H])c([C@]2([2H])CCCN2C(=O)C(C)(C)Oc2ccc3cn[nH]c3c2)c([2H])c([2H])c1C([2H])([2H])[2H]` is reported as 75% (MAPK7 (Homo sapiens, UniProt Q13164); KINOMEscan; 1 µM; relative to: DMSO control).
The inhibition of `CN(C(=O)n1cnc(-c2ccc[n+]([O-])c2)c1)C1CCCCC1` is reported as 20% (IP3 receptor, rat; binding; 50 µM, added: [3H]IP3).
`CO[C@H]1C[C@H](O[C@H]2[C@H](C)O[C@@H](O[C@@H]3/C(C)=C/C[C@@H]4C[C@@H](C[C@]5(C=C[C@H](C)[C@@H](C6CCCCC6)O5)O4)OC(=O)[C@@H]4C=C(C)[C@@H](O)[C@H]5OC/C(=C\C=C\[C@@H]3C)[C@]54O)C[C@@H]2OC)O[C@@H](C)[C@@H]1O`: activity “inactive” (Nuclear receptor subfamily 1 group I member 3 (Homo sapiens, UniProt Q14994); cells; concentration not given).
`COc1ccc(N2C(=O)N(c3c(C)cccc3Cl)Cc3cnc(Nc4ccc(C5CCN(C)CC5)cc4OC)nc32)nc1` gave an inhibition of -1.62% (CHUK; kinase activity, inhibitor; 0.5 µM, kinase IKK-ALPHA).
The median ratio of `O=C(c1ccc(Cl)cc1)N1CCN2C(=O)N(OC(=O)N3CCOc4ccccc43)C(=O)C2C1` (centres unmarked) is reported as 1.07 (CTSA (Homo sapiens, UniProt P10619); enzyme activity, inhibitor, MS-based ABPP; SW-620 in situ; 10 µM, 2 h, 37 °C; relative to: compound over DMSO, lower = stronger inhibition).
`O=C(Nc1cccnn1)N1CCC(=Cc2cccc(Oc3ccc(C(F)(F)F)cn3)c2)CC1` gave an inhibition of 0% (CHUK; enzyme activity, inhibitor; 10 µM).
For `NC[C@H](NC(=O)c1ccc(C#Cc2ccccc2)cc1)C(=O)NO`, “-TΔS of binding” read -9.14 kcal/mol (UDP-3-O-acyl-N-acetylglucosamine deacetylase (Pseudomonas aeruginosa, UniProt P47205, C40S); ITC; concentration not given, 298 K).
`C[C@H]1CN(c2n[nH]c3nc(N[C@H]4CC[C@H](NS(=O)(=O)CCC(F)(F)F)CC4)ncc23)CCO1` has a relative abundance of 1.09 (MYLK (Homo sapiens, UniProt Q15746); inhibitor, Kinobeads competition profiling; 20 µM; relative to: vehicle).

A few entries again:
The median ratio of `O=C(c1ccc(Cl)cc1)N1CCN2C(=O)N(OC(=O)N3CCOc4ccccc43)C(=O)C2C1` (centres unmarked) is reported as 1.07 (CTSA (Homo sapiens, UniProt P10619); enzyme activity, inhibitor, MS-based ABPP; SW-620 in situ; 10 µM, 2 h, 37 °C; relative to: compound over DMSO, lower = stronger inhibition).
`O=C(Nc1cccnn1)N1CCC(=Cc2cccc(Oc3ccc(C(F)(F)F)cn3)c2)CC1` gave an inhibition of 0% (CHUK; enzyme activity, inhibitor; 10 µM).
